Measurements gathered from unrelated publications.
Protocols differ between the studies behind these lines. ± gives the spread as reported.
Cell line: K562

CCCCn1cc(C(=O)O)c(=O)c2cc(F)c(Nc3cc(OC)c(OC)c(OC)c3)c([N+](=O)[O-])c21  IC50 (cell growth or viability, SRB): 54.9 µM
Cc1[nH][n+]([Pd-2]([Br])([Br])[n+]2[nH]c(C)c(CSCc3ccccc3)c2C)c(C)c1CSCc1ccccc1  IC50 (cytotoxicity, 7-AAD flow cytometry; 24 h): 0.68 ± 0.04 µM
CC(=O)O[C@H]1CC[C@]2(C)C3=C(CC[C@H]2C1(C)C)[C@@]1(C)CC[C@@H]([C@H](C)CCC=C(C)C)[C@]1(C)CC3  inhibition (cell growth or viability, SRB; 50 µM): 39.8%
Cc1[nH][n+]([Pd-2]([Br])([Br])[n+]2[nH]c(C)c(CSC3CCCCC3)c2C)c(C)c1CSC1CCCCC1  IC50 (cytotoxicity, 7-AAD flow cytometry; 24 h): 0.23 ± 0.04 µM
CC(C)=CCc1cc(-c2coc3cc(O)c(CC=C(C)C)c(O)c3c2=O)ccc1O  viability (cell growth or viability, MTT; 100 µg/mL): 8.19%
COC1CCC2(C)C3=C(CCC2C1(C)C)C1(C)CCC(C(C)CCC=C(C)C)C1(C)CC3 (stereo not drawn)  inhibition (cell growth or viability, SRB; 50 µM): 57.8%
COc1cc2c(cc1O)[C@]1(O)C(=O)c3c(O)cc4c(c3O[C@@H]1CO2)C=CC(C)(C)O4  viability (cell growth or viability, MTT; 25 µg/mL): 7.64%
CC(C)=CCCC(C)C1CCC2(C)C3=C(CCC12C)C1(C)CCC(=O)C(C)(C)C1CC3 (stereo not drawn)  inhibition (cell growth or viability, SRB; 50 µM): 95%
CCCCn1cc(C(=O)O)c(=O)c2cc(F)c3c(nnn3-c3ccccc3OC)c21  IC50 (cell growth or viability, SRB): 277 µM
COc1ccc(-c2coc3c(CC=C(C)C)c(O)c(CC=C(C)C)c(O)c3c2=O)cc1O  viability (cell growth or viability, MTT; 12.5 µg/mL): 55%
CCCCn1cc(C(=O)O)c(=O)c2cc(F)c(Nc3ccccc3OC)c([N+](=O)[O-])c21  IC50 (cell growth, SRB; 72 h): 15.3 ± 2.63 µg/mL
CC(C)=CCc1c2c(c(O)c3c(=O)c(-c4ccc(O)cc4)coc13)CC(C(C)(C)O)O2 (stereo not drawn)  viability (cell growth or viability, MTT; 100 µg/mL): 10.6%

Repeated from above:
COc1cc2c(cc1O)[C@]1(O)C(=O)c3c(O)cc4c(c3O[C@@H]1CO2)C=CC(C)(C)O4  viability (cell growth or viability, MTT; 25 µg/mL): 7.64%
CC(C)=CCCC(C)C1CCC2(C)C3=C(CCC12C)C1(C)CCC(=O)C(C)(C)C1CC3 (stereo not drawn)  inhibition (cell growth or viability, SRB; 50 µM): 95%
